# Published values gathered from unrelated publications.
# Protocols differ between the studies behind these lines. Values joined by “and” are separate records of one study, mostly repeats; a detail may differ.
# Cell line: Hs-578T
Compound,assay,conditions,scale,measurement,result
O=C(Nc1nnc2n3c(=S)[nH][nH]c3nc(-c3ccc(Cl)cc3)c1-2)c1ccccc1,SRB,"10 µM, NCI60 single-dose screen",reference: untreated,cell growth,74%
CN1CCN(c2ccc3[nH]c(-c4ccc5[nH]c(-c6ccc(C(F)(F)F)cc6)nc5c4)nc3c2)CC1,SRB,"10 µM, 48 h",,growth percent,26.4%
C#C[C@@]1(O)[C@@H](CO)O[C@@H](n2cc(Br)c3c(N)ncnc32)[C@@H]1O,SRB,NCI-60 screen,,TGI,52.4 µM and > 100 µM
CCOc1ccc(-c2nc3cc(-c4nc5cc(N6CCN(C)CC6)ccc5[nH]4)ccc3[nH]2)cc1OCC,SRB,"10 µM, 48 h",,growth percent,11.1%
Cn1cncc1C1=CN(c2ncnc3[nH]cnc23)CCS1,,,,GI50,5.5 µM
O=C(Cc1ccccc1)Nc1nnc(CCSCCc2nnc(NC(=O)Cc3ccccc3)s2)s1,"cell proliferation, inhibitor, cell counting",144 h,,EC50,3.7 µM
Cc1cc(=O)[nH]n1-c1nc(-c2ccc(Cl)cc2)c2c(NC(=O)c3ccccc3)nnc-2[nH]1,SRB,"10 µM, NCI60 single-dose screen",reference: untreated,cell growth,93.6%
CCCCN1CCN(c2ccc3nc(-c4ccc5nc(-c6cc(OC)ccc6OC)[nH]c5c4)[nH]c3c2)CC1,SRB,"10 µM, 48 h",,growth percent,95.1%
O=C(Nc1nnc2n3c(Cc4ccccc4)n[nH]c3nc(-c3ccc(Cl)cc3)c1-2)c1ccccc1,SRB,"10 µM, NCI60 single-dose screen",reference: untreated,cell growth,97.5%
C#C[C@@]1(O)[C@@H](CO)O[C@@H](n2cc(F)c3c(N)ncnc32)[C@@H]1O,SRB,NCI-60 screen,,TGI,> 100 µM
NNc1nc(-c2ccc(Cl)cc2)c2c(NC(=O)c3ccccc3)nnc-2[nH]1,SRB,"10 µM, NCI60 single-dose screen",reference: untreated,cell growth,95.9%
O=C1NC(=NCc2cccs2)S/C1=C\c1ccc2ncccc2c1,MTS,NCI60 panel,,IC50,5.83 µM

# A few entries again:
Compound,assay,conditions,scale,measurement,result
O=C(Nc1nnc2n3c(=S)[nH][nH]c3nc(-c3ccc(Cl)cc3)c1-2)c1ccccc1,SRB,"10 µM, NCI60 single-dose screen",reference: untreated,cell growth,74%
